Measurements collected from several papers.
Lines come from different studies, so protocols differ. Values joined by “and” are separate records of one study, mostly repeats; a detail may differ. ± gives the spread as reported.
HTR6: 5-hydroxytryptamine receptor 6 (HTR6, Homo sapiens, UniProt P50406)
UniProt Q9Y2J8, sequence (whole entry, looked up): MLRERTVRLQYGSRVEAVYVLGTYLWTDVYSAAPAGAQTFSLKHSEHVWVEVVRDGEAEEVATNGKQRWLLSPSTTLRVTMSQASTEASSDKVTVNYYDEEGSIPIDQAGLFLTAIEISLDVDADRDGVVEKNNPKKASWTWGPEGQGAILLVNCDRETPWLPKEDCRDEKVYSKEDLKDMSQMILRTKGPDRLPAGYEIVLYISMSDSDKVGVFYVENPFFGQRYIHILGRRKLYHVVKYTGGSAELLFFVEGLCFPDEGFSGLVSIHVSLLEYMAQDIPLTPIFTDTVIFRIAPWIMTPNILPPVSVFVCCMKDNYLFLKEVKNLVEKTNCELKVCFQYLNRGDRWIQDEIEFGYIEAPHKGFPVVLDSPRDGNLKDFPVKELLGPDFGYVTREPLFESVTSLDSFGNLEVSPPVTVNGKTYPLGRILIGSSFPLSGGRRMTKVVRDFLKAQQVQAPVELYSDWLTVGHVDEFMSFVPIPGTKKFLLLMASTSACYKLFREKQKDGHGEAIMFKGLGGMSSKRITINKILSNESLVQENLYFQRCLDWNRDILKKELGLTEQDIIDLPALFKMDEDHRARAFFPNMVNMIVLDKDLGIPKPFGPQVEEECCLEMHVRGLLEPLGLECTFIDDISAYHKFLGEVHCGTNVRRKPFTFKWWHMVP
UniProt P21554, sequence (whole entry, unmodified, looked up): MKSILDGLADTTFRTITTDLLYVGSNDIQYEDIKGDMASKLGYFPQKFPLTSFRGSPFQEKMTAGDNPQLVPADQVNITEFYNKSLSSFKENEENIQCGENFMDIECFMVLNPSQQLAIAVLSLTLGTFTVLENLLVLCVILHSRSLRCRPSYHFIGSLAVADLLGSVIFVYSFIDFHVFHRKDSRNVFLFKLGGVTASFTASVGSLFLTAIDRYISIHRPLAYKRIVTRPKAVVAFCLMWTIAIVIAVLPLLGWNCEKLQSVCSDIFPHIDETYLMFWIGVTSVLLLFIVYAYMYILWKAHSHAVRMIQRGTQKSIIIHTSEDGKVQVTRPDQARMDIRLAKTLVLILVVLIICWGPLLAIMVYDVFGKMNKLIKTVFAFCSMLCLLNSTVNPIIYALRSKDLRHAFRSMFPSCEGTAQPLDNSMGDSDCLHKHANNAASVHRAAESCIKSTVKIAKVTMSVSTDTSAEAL
UniProt P50406, sequence (whole entry, looked up): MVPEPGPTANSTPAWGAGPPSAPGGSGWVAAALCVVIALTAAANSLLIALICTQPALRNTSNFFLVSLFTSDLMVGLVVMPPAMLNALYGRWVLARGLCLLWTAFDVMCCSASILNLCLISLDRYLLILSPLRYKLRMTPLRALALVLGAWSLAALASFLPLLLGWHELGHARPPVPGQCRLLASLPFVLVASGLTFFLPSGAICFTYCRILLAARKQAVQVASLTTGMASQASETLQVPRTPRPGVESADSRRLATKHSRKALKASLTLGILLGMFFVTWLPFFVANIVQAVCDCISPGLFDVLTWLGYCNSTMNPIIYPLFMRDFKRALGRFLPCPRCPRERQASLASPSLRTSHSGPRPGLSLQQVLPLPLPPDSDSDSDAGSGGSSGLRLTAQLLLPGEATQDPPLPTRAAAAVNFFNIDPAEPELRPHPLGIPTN
UniProt Q16584, sequence (whole entry, looked up): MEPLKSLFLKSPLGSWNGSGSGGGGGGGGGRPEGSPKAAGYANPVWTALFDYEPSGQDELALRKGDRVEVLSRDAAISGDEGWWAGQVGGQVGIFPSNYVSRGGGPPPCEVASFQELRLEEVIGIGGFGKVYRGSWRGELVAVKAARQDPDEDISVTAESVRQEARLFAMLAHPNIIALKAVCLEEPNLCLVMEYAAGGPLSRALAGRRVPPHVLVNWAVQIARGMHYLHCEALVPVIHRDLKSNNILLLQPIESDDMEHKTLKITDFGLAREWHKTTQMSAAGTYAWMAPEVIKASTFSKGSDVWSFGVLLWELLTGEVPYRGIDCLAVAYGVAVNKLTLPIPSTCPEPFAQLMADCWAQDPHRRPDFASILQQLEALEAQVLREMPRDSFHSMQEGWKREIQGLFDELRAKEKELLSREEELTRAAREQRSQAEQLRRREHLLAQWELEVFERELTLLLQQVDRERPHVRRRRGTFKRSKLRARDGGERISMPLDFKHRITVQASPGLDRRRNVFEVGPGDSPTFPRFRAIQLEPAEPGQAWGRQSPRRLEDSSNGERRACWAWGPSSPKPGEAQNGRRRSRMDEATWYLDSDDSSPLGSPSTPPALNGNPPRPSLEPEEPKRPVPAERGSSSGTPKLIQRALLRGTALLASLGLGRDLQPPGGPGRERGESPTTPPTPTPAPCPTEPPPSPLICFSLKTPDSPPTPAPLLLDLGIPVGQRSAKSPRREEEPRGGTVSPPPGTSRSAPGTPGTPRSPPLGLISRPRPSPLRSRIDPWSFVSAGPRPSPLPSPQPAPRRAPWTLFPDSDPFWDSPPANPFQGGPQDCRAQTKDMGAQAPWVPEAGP
UniProt P54310, sequence (whole entry, looked up): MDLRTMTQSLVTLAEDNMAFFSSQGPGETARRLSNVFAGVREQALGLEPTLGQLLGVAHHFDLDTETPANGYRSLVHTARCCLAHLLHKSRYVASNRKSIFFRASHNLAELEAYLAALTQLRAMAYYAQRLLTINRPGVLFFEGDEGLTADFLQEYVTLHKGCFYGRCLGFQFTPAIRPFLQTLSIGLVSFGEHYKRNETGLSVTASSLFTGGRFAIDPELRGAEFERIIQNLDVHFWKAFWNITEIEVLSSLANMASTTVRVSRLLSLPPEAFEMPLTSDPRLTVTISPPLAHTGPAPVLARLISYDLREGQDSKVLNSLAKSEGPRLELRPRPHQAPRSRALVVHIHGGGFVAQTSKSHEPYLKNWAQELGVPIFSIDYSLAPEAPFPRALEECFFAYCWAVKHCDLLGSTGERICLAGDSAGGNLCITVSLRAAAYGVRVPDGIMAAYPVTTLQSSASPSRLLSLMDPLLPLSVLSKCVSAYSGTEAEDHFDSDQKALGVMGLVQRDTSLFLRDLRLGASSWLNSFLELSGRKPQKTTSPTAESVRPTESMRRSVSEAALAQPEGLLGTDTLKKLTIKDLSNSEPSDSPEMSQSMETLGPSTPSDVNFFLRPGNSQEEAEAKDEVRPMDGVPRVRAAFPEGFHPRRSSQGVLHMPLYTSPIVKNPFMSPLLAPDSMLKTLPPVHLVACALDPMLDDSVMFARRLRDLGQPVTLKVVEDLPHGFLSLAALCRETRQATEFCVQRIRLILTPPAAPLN
UniProt Q9HBH9, sequence (whole entry, looked up): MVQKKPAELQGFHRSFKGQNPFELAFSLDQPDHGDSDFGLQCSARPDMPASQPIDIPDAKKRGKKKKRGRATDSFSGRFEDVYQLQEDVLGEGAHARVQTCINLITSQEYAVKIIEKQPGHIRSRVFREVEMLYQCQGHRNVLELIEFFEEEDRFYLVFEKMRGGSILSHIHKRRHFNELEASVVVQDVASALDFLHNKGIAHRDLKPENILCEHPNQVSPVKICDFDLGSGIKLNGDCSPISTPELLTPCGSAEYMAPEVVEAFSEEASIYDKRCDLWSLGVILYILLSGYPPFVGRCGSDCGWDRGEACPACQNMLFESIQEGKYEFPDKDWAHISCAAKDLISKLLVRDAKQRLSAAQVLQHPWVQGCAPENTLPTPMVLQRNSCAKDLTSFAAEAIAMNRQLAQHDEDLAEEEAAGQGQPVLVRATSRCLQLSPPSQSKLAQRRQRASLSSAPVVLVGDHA
UniProt Q9UL54, sequence (whole entry, looked up): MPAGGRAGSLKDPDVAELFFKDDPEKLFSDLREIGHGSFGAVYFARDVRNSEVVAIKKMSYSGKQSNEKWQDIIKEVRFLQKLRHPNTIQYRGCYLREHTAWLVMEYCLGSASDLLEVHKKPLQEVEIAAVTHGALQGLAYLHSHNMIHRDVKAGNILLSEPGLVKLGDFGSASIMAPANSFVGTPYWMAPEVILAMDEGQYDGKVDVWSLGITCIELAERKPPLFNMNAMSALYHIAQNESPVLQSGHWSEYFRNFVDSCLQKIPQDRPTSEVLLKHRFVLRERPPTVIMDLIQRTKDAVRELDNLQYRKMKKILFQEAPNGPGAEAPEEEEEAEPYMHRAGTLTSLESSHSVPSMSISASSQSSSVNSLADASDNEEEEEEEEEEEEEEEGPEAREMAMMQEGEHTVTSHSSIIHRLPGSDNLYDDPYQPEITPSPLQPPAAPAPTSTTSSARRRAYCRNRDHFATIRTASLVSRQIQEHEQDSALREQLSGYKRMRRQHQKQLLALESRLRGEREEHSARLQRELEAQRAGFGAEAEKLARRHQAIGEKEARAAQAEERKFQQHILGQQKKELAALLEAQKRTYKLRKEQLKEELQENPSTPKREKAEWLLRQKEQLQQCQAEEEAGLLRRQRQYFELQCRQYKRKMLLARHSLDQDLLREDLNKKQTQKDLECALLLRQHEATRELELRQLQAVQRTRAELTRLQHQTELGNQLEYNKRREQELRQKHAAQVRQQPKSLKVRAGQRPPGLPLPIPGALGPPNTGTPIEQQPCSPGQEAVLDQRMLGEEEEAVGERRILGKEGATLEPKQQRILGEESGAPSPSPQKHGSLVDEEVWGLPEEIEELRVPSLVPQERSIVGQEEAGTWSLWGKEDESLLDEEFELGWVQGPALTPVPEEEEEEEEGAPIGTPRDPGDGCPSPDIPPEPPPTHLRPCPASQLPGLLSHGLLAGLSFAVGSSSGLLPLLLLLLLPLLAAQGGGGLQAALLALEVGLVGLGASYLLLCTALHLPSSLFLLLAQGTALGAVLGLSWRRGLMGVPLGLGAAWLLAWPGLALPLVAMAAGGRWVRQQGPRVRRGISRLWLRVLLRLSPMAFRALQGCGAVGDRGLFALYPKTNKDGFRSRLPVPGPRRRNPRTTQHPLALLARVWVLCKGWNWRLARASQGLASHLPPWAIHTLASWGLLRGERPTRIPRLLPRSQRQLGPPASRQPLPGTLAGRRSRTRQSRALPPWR

With CN(C)[C@H]1C[C@@]23CC[C@@]4(O2)C(=CC[C@]2(C)[C@@H](c5ccc6ccncc6c5)CC[C@H]24)C=C3[C@@H](O)[C@@H]1O the inhibition was -12.8% (MAP3K11 (Homo sapiens, UniProt Q16584); ATP probe labelling, inhibitor, KiNativ profiling; 1 µM).
CC(C)CC(O)(CC(C)C)c1cn(C(=O)N2CCCC2)nn1 gave an activity ratio of 1.39 (Lipe (Mus musculus, UniProt P54310); enzyme activity, inhibitor, competitive ABPP-SILAC; mouse T-cells; concentration not given, 4 h, treated in situ; baseline: DMSO).
O=C1NC(=O)c2c1c1cc(F)c[n+]3c1c1c2c2cc(O)ccc2[n]1[Ru-4]312([N]=C=S)[S+]3CC[S+]1CC[S+]2CC3 (stereo not drawn) gave a remaining activity of 83% (MKNK2 (Homo sapiens, UniProt Q9HBH9); enzyme activity; 100 nM, human enzyme, together with: 10 µM ATP; baseline: untreated).
For O=C1NC2(CC2)COc2ncc(F)cc2[C@H]2COCCN2c2ccn3ncc1c3n2, the organ weight was 0.076 ± 0.007 g (Sprague-Dawley rat, female, adrenals; oral, 20 mg/kg/day, 4 weeks).
With Cc1sc2c(c1C)C(c1ccc(Cl)cc1)=NC(CC(=O)OC(C)(C)C)c1nnc(C)n1-2 (stereo not drawn) the remaining binding was 97.7% (HTR6; ligand displacement, radioligand; 1 µM).
The inhibition of CC(C)[C@H]1NC(=O)C[C@H]2/C=C/CCSSC[C@@H](NC1=O)C(=O)N[C@H](Cc1cccc3ccccc13)C(=O)NCC(=O)O2 is reported as 1.9% (TAOK2 (Homo sapiens, UniProt Q9UL54); enzyme activity, inhibitor; 10 µM).
The Emax of COc1ccccc1C(C[N+](=O)[O-])c1c(-c2ccccc2)[nH]c2ccccc12 (stereo not drawn) is reported as 85.3 ± 6.21% (CNR1 (Homo sapiens, UniProt P21554, I245L); Gαi1-γ2 dissociation, BRET).
CS(C)(=O)=Nc1ccc(-c2ccc(-c3nc4cc(O[C@@H]5CO[C@H]6[C@@H]5OC[C@H]6O)[nH]c4cc3F)cc2)cc1 gave an inhibition of 9% (HTR6; calcium signal, antagonist; 10 µM).
For Nc1ccc(/C=C/C(=O)N2CCc3c(oc4c(-c5ccc(F)cc5)cc(-c5ccc(C(=O)N6CCC(F)(F)CC6)cn5)cc34)C2)cn1, the remaining binding was 100% (STK11 (Homo sapiens, UniProt Q15831); binding, competition with immobilised ligand; 1 µM).
With Cc1ccc2c(C(C[N+](=O)[O-])c3cccs3)c(-c3ccccc3)[nH]c2c1 (stereo not drawn) the Emax was 86.8 ± 2.41% (CNR1 (Homo sapiens, UniProt P21554, V249A); Gαi1-γ2 dissociation, BRET).
N[C@H](C(=O)N1CCCC1)C1CCN(c2nccc3c(-c4ncc(Cl)cc4Cl)cccc23)CC1 gave a kcat of 0.439 s⁻¹ and 0.393 s⁻¹ (PADI2 (Homo sapiens, UniProt Q9Y2J8); enzyme activity; 9.6 µM, high-affinity site, together with: Ca2+ 1.5 mM).
CC(C)C[C@H](NC(=O)[C@H](CC(C)C)NC(=O)[C@H](CCCCN)NC(=O)[C@H](Cc1ccccc1)NC(=O)[C@@H](NC(=O)[C@H](CCCNC(=N)N)NC(=O)[C@@H](N)CCCCN)C(C)C)C(=O)N[C@@H](CCCCN)C(=O)N[C@@H](CCCNC(=N)N)C(=O)N[C@@H](Cc1ccc(O)cc1)C(=O)N[C@@H](Cc1c[nH]c2ccccc12)C(=O)N[C@@H](CCCNC(=N)N)C(=O)N[C@@H](CCC(N)=O)C(=O)N[C@@H](CC(C)C)C(=O)N[C@@H](CCCCN)C(=O)N[C@@H](CCCCN)C(=O)N1CCC[C@H]1C(=O)N[C@H](C(=O)N[C@@H](CCCNC(=N)N)C(=O)NCCOCCOCC(=O)O)C(C)C: “complete DNA binding concentration” no less than 16 µM (Pseudomonas aeruginosa; gel retardation; genomic DNA).

Some of these lines once more:
CC(C)C[C@H](NC(=O)[C@H](CC(C)C)NC(=O)[C@H](CCCCN)NC(=O)[C@H](Cc1ccccc1)NC(=O)[C@@H](NC(=O)[C@H](CCCNC(=N)N)NC(=O)[C@@H](N)CCCCN)C(C)C)C(=O)N[C@@H](CCCCN)C(=O)N[C@@H](CCCNC(=N)N)C(=O)N[C@@H](Cc1ccc(O)cc1)C(=O)N[C@@H](Cc1c[nH]c2ccccc12)C(=O)N[C@@H](CCCNC(=N)N)C(=O)N[C@@H](CCC(N)=O)C(=O)N[C@@H](CC(C)C)C(=O)N[C@@H](CCCCN)C(=O)N[C@@H](CCCCN)C(=O)N1CCC[C@H]1C(=O)N[C@H](C(=O)N[C@@H](CCCNC(=N)N)C(=O)NCCOCCOCC(=O)O)C(C)C: “complete DNA binding concentration” no less than 16 µM (Pseudomonas aeruginosa; gel retardation; genomic DNA).
